Experimental data gathered from unrelated publications.
Parts stem from different laboratories: compare values within a part only.

Sample 1 — technique: protein binding microarray; form: double-stranded DNA, one strand shown; medium: in vitro; concentration: not given; reference: not given; direction: higher = stronger binding
Target: Histone acetyltransferase KAT6A, both winged helices, GST fusion (KAT6A, Homo sapiens, UniProt Q92794, residues 1-181)
Notes: 8-mer, flanks averaged, mean of 2 arrays, mostly near background
Target sequence (chain): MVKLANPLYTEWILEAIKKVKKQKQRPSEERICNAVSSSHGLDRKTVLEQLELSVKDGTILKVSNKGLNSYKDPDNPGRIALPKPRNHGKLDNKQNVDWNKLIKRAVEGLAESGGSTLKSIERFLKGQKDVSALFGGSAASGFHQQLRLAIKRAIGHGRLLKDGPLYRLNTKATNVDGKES
Strand | E-score
GCTGGGCA | -0.121
ACAGATGC | -0.0347
AAACAAAC | -0.141
CCTTGGCG | 0.0952
CCTCCAAC | -0.205
CTCCGAGC | 0.072
AGGTGCGC | 0.146
CGGTTTAG | 0.119
GGATGCAA | -0.118
CCTGACTC | -0.0254
TAAGTACA | -0.171
TAGCCGGA | 0.246
CAGAAACC | -0.0262
ACATGGTG | -0.0184
CAATCGGA | -0.0447
ATTTACGA | 0.036
ACCAATAA | -0.02

Sample 2 — technique: RNAcompete; form: RNA; medium: in vitro; concentration: 20 nM; notes: 7-mer, probes averaged, single round; reference: mean of 7-mers; direction: higher = stronger binding
Target: PABPC1L2, full length, GST fusion (mouse, UniProt A0ABA7IW68)
Residues (chain): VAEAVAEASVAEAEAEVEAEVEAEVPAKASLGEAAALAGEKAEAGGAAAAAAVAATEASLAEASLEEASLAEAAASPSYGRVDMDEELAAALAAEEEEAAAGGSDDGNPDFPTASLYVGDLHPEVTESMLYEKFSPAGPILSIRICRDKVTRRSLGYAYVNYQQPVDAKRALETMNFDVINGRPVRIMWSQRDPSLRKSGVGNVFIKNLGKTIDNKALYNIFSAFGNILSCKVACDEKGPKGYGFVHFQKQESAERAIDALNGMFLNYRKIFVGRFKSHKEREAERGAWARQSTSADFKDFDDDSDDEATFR
Strand | 7-mer Z-score
GCUAAUC | -0.204
UUGUGUA | -0.47
CGCCAAC | -0.257
ACAAAAA | 21.6
AGACGUA | -0.224
CCAAUGA | -0.0482
AUUUAAU | 0.209
CGUGCGG | -0.0174
AUUCGUC | -0.353
UCGUCAG | -0.354
CCUGUCG | -0.322
GUUACUC | -0.289
GGCCUCU | -0.258
AUGAGUC | -0.269
UCAGACA | 0.0116
UGCAAAC | 0.158
GCUCUUA | -0.22
AAUGGAU | 0.341
GUAAAAA | 11.5
UUGAUUU | -0.142
AUCCUAA | -0.103
CGACUUC | -0.202
CCGGAAC | -0.137
AUUCCGG | -0.15
AUUCAGC | -0.135

Sample 3 — technique: RNA Bind-n-Seq; form: RNA; medium: in vitro; concentration: 365 nM; reference: no-protein control; direction: higher = stronger binding
Target: RNA binding protein fox-1 homolog 2, RRM domain, GST-SBP tag (RBFOX2, Homo sapiens, UniProt O43251-10, residues 100-194)
Notes: natural RNA segment, single round, ends assumed
Residues (chain): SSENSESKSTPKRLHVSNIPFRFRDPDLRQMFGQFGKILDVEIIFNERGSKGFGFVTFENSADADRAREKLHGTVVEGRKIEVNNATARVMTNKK
Strand | RBNS enrichment (R)
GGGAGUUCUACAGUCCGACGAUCGGGUGGCUUUUGGUUUUUGUUUCUUUCUUGUCUUGUCUUUUAUUGAAAGGAAAUCAAAAAUAGGCUAAACAGAAUUUUGAGGGCAUGGCCCAAAUAACUCAUGAGUUCCAUGGAAUUCUCGGGUGCCAA | 2.03
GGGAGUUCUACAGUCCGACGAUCAUGUUGCCGAAAUAAGCAACUCUUAGGUUUGCCUGACUGCCUUAUGCUGGUAAAGAAAAGGGAUUCAACUGUCUCUUUUCCAAAUAAAAAAAAAGUCAAAAUUUCAAGUGUGGAAUUCUCGGGUGCCAA | 0.305
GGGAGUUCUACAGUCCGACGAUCCUGGGACGGCAGGAAGGUGGGAUGGGCGGGAGACGUUGGCACUCACCUGGUCGGUGCACCAGUACCAGGUGGCCAUGAUGGUCAGGCCAAAGGUCAUCCCGGUCCACGGCUGGAAUUCUCGGGUGCCAA | 0.453
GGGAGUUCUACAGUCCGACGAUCCAGUGAUACAGUAUAAAGAUAAACAGAAAUGCUGAGAUACGCUUAGCACUUGAGUUGUACAACAGAACACUUGUACAAAAUAGAUUUUAAGGCUAACUUCUUUUCACUGUUGGAAUUCUCGGGUGCCAA | 0.412
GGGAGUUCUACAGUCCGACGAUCGGAAAGGAGGUGGCUAGUGGUAUCAGUUCUCUGAUCCACUUCCAUUUAAGCUCCCCAGGAAAUCCCAUGACAAACUGGCCUCUGGCUGGCGCGCUGAUUAGACUUCAGUUUGGAAUUCUCGGGUGCCAA | 0.183
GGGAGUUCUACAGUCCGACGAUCCAAGCCCUACUGCCAGCCCUGCUUCCUGAAGCUCUUCGGCUGACAGCCCGCUCGGCUCGCCCUCUCCCCCGGAGGCCGCGCCCUCCCGGAAAAGCCGGGUCCUCCAGACCUGGAAUUCUCGGGUGCCAA | 0.143
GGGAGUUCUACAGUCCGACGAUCUGAAAAGAAUUGUCUCUAAUUAUUUGAACCUCUGAAGAAUUGUACACAAGGAGGAUCAGACUUUAAAACUAUCCAUGUGGAUUCUGAGAGCUGCUGCCCAGCAGAAGUCUUGGAAUUCUCGGGUGCCAA | 0.28
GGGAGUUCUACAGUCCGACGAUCAUGAGAGUGUAGUCAAGGGCCUGGGCACAGGAGGGAGAGCUGCAGAGUGUCCUGCCUGCCUUGGCUGGAGGGACACCUCUCCUGGGUGUGGAGACAGCUUGGUUCCCUUUUGGAAUUCUCGGGUGCCAA | 0.533
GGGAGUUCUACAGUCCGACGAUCAGAUGAAACCUGUAUAUUAGGUGUUCAUGUGGUUAUUUUGUAUUUAAAGAUCAAAUUAUUUGAUUAUUGCUAGACAUUUCUAUACUCUGUUGUAACACUGAGGUAUCUCAUGGAAUUCUCGGGUGCCAA | 0.974
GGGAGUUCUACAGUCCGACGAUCUAAAUCCAAUGAGUACUACCCCACCCAUCUUGAUGAAUAUCAAUAUCUUCAGGACUGCAAUCAUUCUGCCUAUAGGUCAGAACUGAGCUAGGAUGGAAUCUUGAAACAUAUGGAAUUCUCGGGUGCCAA | 0.339
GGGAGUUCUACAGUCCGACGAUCUUGAAUAAUCAUGUGCUUAGUCCCUUGGAUUACUGCCACAUCAGUUUAACACGAUAUCAGCACAUUCCCUUGUCAUCAUCAAGGUGUUGGCUCAGAUUUAUUCUUAAUUGUGGAAUUCUCGGGUGCCAA | 0.281
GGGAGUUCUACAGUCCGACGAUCUACAUUAUCCGACUAAGGACUCUGGGCUGGCAGGGCCUUCUGCCGGGAAAGCUAGAAACACUAGGUUCUUCCUGUACAUACGUGUAUAUAUGUGAACAGUGAGAUGGCCGUGGAAUUCUCGGGUGCCAA | 0.671

Sample 4 — technique: RNA Bind-n-Seq; form: RNA; medium: in vitro; concentration: 200 nM; notes: whole 134-nt RNA, ends assumed; with: 150 mM KCl; reference: input library; direction: higher = stronger binding
Target: Ras GTPase-activating protein-binding protein 1, full length (G3BP1, Homo sapiens, UniProt Q13283)
Sequence of UniProt Q13283 (whole entry, looked up): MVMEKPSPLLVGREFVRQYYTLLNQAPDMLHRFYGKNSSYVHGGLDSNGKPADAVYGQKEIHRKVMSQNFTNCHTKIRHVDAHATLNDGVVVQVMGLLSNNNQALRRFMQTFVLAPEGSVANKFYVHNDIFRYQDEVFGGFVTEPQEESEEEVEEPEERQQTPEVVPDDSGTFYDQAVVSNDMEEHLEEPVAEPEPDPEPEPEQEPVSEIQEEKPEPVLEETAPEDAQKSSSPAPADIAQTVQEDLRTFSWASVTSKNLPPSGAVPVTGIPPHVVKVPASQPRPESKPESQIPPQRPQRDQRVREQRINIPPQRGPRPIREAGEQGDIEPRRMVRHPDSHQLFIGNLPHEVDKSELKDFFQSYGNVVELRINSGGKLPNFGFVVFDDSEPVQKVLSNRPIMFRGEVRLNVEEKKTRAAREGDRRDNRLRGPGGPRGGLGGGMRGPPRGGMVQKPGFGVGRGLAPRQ
Strand | log2 enrichment
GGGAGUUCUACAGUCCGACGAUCACCAUGCAGGUGGGCAUCUUUGGGAAGUGGGGCAAGGGGGGGAUAGGGAGGGGGGUAACACUUGGGGAACAGGUGGUCCCAGGUCGUUUCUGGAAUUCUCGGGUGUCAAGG | 1.26
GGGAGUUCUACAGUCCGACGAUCCCUGUGCUACACAUCGUAUGUACCGAAUCGGCCCCCCCGGGCCCCCCCGGCCCCCCCGGGGAAAGUAUUAUGUUACGCCGUUCGGAUCUGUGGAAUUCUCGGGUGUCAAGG | -0.206
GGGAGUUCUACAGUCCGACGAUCCCUGUGCUACACAUCGUAUGUACCGAAUCGGGGUUUUUUUGGGGUUUUUUUGGGGAGGGGAAAGUAUUAUGUUACGCCGUUCGGAUCUGCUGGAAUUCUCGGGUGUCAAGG | 0.208
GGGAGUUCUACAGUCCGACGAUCUCCUGUGCUACACAUCGUAUGUACCGAAUCAAAUUUUUAAAUUUUUUUAAACCCCCAAAAAAGUAUUAUGUUACGCCGUUCGGAUCUGCAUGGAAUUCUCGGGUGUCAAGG | 0.0895
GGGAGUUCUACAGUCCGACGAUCAAGUCCUGUGCUACACAUCGUAUGUACCGAAUCGGGGAAAGGGGAAAGGGAAAGGGAAAGUAUUAUGUUACGCCGUUCGGAUCUGCACUUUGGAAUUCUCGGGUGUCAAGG | 0.312
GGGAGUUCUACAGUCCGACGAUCCACAGACAACACGCACCCACACAGACACAGAGGGAAGGGGAAAGGAUGGGGACAGGGUGCACAGCAGGGCGGGGUAGGACCCCAGCCCCUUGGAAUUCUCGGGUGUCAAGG | 1.79
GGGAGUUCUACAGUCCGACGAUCUCCUGUGCUACACAUCGUAUGUACCGAAUCGGGAAAAAAAGGGUUUUUUUGGGUUUGGGAAAGUAUUAUGUUACGCCGUUCGGAUCUGCAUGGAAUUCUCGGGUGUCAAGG | -0.544
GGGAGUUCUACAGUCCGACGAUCUUGAUUGAUAUUACAGGCAAGAACCAGGAUGAAUGUGUGAUUGCUUUGCAUGACUGCAAUGGAGAUGUCAACAGAGCUAUCAAUGUUCUUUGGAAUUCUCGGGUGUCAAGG | -2.43
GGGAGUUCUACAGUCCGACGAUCGCAGGAAGUAAAAACAAAUGGAAAUGCUUCGGAUAGUGGCAGGGGUGGGGGUUGCUAAGGAAAGGGUGGGAUGGGAGUGGGUUAAGAGUUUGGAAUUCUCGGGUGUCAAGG | 1.25
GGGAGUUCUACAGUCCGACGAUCACCAUGCAGGUGGGCAUCUUUGGGAAGUGGGGCAAGGGGGGGAUAGGGCGGGGGGUAACACUUUGGGAACAGGUGGUCCCAGGUCGUUUCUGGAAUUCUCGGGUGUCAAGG | 1.21
